Assay results collected from several papers.
Each numbered part is a random draw from the data of one study; scales do not carry over between parts.
Sequence of UniProt P35348 (whole entry, looked up): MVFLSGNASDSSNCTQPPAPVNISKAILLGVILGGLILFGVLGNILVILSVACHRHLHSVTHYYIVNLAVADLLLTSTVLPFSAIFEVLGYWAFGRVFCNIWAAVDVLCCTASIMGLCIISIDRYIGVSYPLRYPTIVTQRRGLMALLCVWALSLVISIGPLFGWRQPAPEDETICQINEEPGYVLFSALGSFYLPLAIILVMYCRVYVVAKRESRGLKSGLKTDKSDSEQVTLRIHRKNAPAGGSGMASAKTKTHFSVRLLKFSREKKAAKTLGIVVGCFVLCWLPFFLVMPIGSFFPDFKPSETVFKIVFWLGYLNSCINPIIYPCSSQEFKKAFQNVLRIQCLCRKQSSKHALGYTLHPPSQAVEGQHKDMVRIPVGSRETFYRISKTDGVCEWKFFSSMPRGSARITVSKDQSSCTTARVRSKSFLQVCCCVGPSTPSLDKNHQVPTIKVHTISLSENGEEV

Sample 1
Target: PABPC1L2, full length, GST fusion (mouse, UniProt A0ABA7IW68)
Technique: RNAcompete
Molecule type: RNA
Sample: in vitro
Concentration: 20 nM
Notes: 7-mer, probes averaged, single round
Baseline: mean of 7-mers
Reading: higher = stronger binding
Endpoint: 7-mer Z-score
Residues (chain): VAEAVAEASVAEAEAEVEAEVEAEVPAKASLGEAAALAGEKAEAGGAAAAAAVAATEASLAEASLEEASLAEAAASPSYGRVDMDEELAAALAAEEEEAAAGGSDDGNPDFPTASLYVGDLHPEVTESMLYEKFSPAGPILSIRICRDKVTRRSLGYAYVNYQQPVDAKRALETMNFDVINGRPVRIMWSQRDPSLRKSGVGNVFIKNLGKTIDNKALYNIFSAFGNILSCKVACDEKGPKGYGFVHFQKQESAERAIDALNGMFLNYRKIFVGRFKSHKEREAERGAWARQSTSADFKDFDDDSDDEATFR
UAGGCCG: -0.0264
CUGGCAU: -0.155
UCCCUUG: -0.374
CUUGACA: -0.309
AUAGUCG: -0.108
AUGGAGA: 0.18
CAAUUGA: -0.122
UGGAUGA: 0.0714

Sample 2
Target: Centromere-binding protein 1, full length, N-terminal tag (CBF1, Saccharomyces cerevisiae, UniProt P17106, residues 1-351)
Sequence of UniProt P17106 (whole entry, looked up): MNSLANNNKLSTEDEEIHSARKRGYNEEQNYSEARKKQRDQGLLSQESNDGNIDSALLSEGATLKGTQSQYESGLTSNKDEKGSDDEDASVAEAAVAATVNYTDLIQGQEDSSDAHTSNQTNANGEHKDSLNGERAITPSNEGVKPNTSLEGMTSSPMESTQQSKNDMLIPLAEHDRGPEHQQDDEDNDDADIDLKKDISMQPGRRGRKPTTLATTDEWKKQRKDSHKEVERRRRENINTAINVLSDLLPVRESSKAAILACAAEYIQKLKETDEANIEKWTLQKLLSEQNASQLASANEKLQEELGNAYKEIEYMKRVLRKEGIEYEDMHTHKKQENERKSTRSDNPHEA
Technique: protein-binding microarray
Molecule type: double-stranded DNA, one strand shown
Sample: in vitro
Concentration: 0.8 µM
Notes: whole 60-bp probe, no competitor
Reading: higher = stronger binding
Endpoint: fluorescence intensity
Shared flanks, not repeated: … GTCTTGATTCGCTTGACGCTGCTG
CTATCGCATAAGAGGCACGCCTCTTATCAATTTTTC: 520 a.u.
CTAATCCCTGCGGTGGACGTGGCTAAAGAATAGTTC: 525 a.u.
CTACACCGTCACCATCACCATCATATCGCCTTATTC: 532 a.u.
GAACCATTACCTACTAACGTGAGCGTAGAAGTTTAG: 573 a.u.
GAATCCTAGGTCCATCAGCTACTGCACATTCTTTAG: 512 a.u.
GAATGTTCCCGGCAGCACGAGTAAGCAAAATTCTAG: 616 a.u.
TGTACGAAGCTATAAGACGTGCCTATAGTAGTTAGG: 519 a.u.
GAATGCTTTACAACTCATCTCCTGTAATTTCCATAG: 516 a.u.

Mixed results
CN1C(=O)[C@@H](N2CCc3c(nn(Cc4ccccc4)c3Br)C2=O)COc2ccccc21
inhibition (ADRA1A (Homo sapiens, UniProt P35348); cell-free assay; 10 µM): -4.83%

COc1ccc(-c2c(Nc3ccccn3)[nH]c3c(C4=CCCCC4)c(-c4ccccc4)nn3c2=O)cc1
median concentration (refers to: S-adenosylmethionine; human patients, plasma; 100 mg once daily, 0 h): 15.4 ng/mL

A few entries again (sample 1):
UAGGCCG: -0.0264
CUGGCAU: -0.155
